Published values of several laboratories.
Each numbered part is a random draw from the data of one study; scales do not carry over between parts. Changes are numbered by the printed parent chain.

Series 1
Target: RNA binding protein fox-1 homolog 2, RRM domain, GST-SBP tag (RBFOX2, Homo sapiens, UniProt O43251-10, residues 100-194)
Method: RNA Bind-n-Seq
Form: RNA
Sample: in vitro
Tested at: 365 nM
Notes: natural RNA segment, single round, ends assumed
Relative to: no-protein control
Reading: higher = stronger binding
All sequences stand within: GGGAGUUCUACAGUCCGACGAUC … UGGAAUUCUCGGGUGCCAA
Construct (chain): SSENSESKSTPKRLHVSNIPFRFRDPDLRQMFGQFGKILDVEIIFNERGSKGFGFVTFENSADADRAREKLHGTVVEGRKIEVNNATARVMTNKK
| Strand | RBNS enrichment (R) |
| --- | --- |
| CAAGUCUGCCCUGUUUUUUUAAUUCUUUAUUCUUGUGACAGCAUUUUUGGACGUUGGAAGAGCUCAGAAGCCCAUCUUCUGCAGUUACCAAGGAAGAAAGAUCGUUCUGA | 0.514 |
| UCUUUUCCUUCUCCAUCAUCUUAGAGCCAAGUUAUAUGUUCUUGUCUAAUCCAUGUAGCUUUUUGUUCAAUGACUUGAUCAUCUGCUUCCUUUUUGAAUUUUUAACAGAU | 0.633 |
| CAUAUCUUUCCAUAUAUCCUAUUAUUUCUGAAUAUAUGUCCUCAAAAUCCCCAUAAAUAUCCAUCCCUUCCUAGAUGGCAUUAACUUUCAUUUUAGAUUUUAGGUGACUC | 0.351 |
| UUUUAGGUAUAAAUUCUUAUGCUUUAACAUUAUUUCUGGAUUGAAAAUCUUAUAAAACCCUUGAAAAUAAACAGUCUCUUUUUUACAAAGCCUGUGUUAGAGCACAGAUU | 0.352 |
| CCUUCCCACCUCAAGCGUCUGUAUAACAUUUAGACUACACAUAAAGUUUAUGUGGUACAGACAUGCCCUUGAGGUUGGUGGAAAAUAAAAAACAAGACCCUUCACACAGU | 0.266 |
| GCAACACAGCGCAAUCUCGUCUCUACUAAAAAAAAAAAAAAAAAAAAAUUAGCUGGGCAUGAUGGCAUGCUCCUGUGGUCCCAGCUACUUGGGAGGCUGAGGCAGGAGGA | 3.86 |
| CUGGCUUCUGCCUCACCUGCAACAGGUCUGUCUAUACAUCUGUCUGGGUUGCUGUCAUUUCUGUUUUUCUCUUGCAGUGACAGAUCAGAUCAAGGCGGUAAAUCAAGUGG | 0.328 |
| GUCCAAAAAGUCACUGAACUCAUACUUCAGUACAUAUACAUGUAUAAGGCACACUGUAGUGCUUAAUAUGUGUAAGGACUUCCUCUUUAAAUUUGGUACCAGUAACUUAG | 0.473 |
| CUACGUUGUCCAGGAGACCUCCCUGUGACCUGGGGCGUGAACUCUGCCCUCGCUGCAGACAGCAGCCGGAGGCUAUUUUGUAGUGCAGAGAUGACUCACUCACUCCGUGU | 0.229 |
| AGGGCUCUACUUAAAGCACAUGAUGUAGAGCAACUCGCCUCUGCCCUGGGUCUGCAGAAGGCUGAGGACUUUUGGUUAAAAGCAAUCCUCAUGAAAACACCCCACCCUGC | 1.28 |
| ACCUGUAAUGGGCUCUGACGCCCUCUUCUGAUGUGUGUCUGAAGACAGCUGCAGUGGACUCAUAAGUAAAAAGACCUCUUCCUUUGGCUUGGGGUACACCUUUGGAUGCU | 0.481 |
| GCCCUCUCAUUGACAUGUACACUACUCCUCGCUGCAGGGCACUGUUCCACCUGGAUCCAGUUGCAAAGUUUGGAAAAGUUCUCUUAGUUUUACUGGAUUCUCAGGGAGCC | 0.85 |

Series 2
Target: RING finger protein unkempt homolog, zinc fingers 1-6, GST-SBP tag (UNK, Homo sapiens, UniProt Q9C0B0, residues 30-357)
UniProt Q9C0B0, sequence (30-357, looked up): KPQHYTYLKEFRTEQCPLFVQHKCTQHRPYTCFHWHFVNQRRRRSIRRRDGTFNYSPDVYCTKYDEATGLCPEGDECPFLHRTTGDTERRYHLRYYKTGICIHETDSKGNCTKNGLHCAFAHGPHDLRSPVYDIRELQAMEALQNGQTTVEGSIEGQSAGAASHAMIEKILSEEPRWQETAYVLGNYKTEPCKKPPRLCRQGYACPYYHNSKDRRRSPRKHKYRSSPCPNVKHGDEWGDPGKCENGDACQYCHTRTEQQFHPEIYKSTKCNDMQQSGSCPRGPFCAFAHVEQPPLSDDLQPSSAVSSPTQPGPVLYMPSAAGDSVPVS
Method: RNA Bind-n-Seq
Form: RNA
Sample: in vitro
Tested at: not given
Notes: RNA with constant flanks, human and mouse sites, ends assumed
Relative to: input RNA pool
Reading: higher = stronger binding
All sequences stand within: GGGAGUUCUACAGUCCGACGAUC … CAACAGAGGAUUGAGCAUCA
| Strand | bound/input enrichment [ratio] |
| --- | --- |
| ACUUUUGAGUCCCCAUGAUUUUCUUCAUACUCUGGUUCCCUUUCUACAACACAACCAUUGUACUUACCAUCACAGUAAUAUACCAAGUGUCCUAGUUGCCUAUGAAGGUUUGCCACUUCA | 0.24 |
| AUCAGCAUUGAGUGUGUGGAGUGCUGUGGCAGGAAUCUUUAUGUCGGCACCAAUGACUGCUUCAUUUACCAUUUCCUGCUGGAGGAGAAGGCCAUGCCUACAGGGACAGCUACAUUCGUU | 0.293 |
| GCUAGAGAGUUUCUGUUUUUCAGAACGGGUCGUGCUUUUUUAAAUAUUGCUAUUGUUAUUGUCUAAUGUGUUUUUAAGGGUUGGCAGCGGUAUGAGUGGUGGUGGGAAUUAAGAUUAAAC | 1.01 |
| UGCCGGCCCGGAGGAGGCCCGGCCAUGGGUGGAAACCUCAAAGCUCGGGGGGCCGGCGGUAGCAGCAGUUGCGGGGGCCCAAAGGGGAAGAAGAAGAACGGAAGGAACAGAGGAGGUAAA | 0.303 |
| GAGGUCCUGAGACAGGAAGACAAAGCUGAAGCCAUGUCCGGCCAUAUUGAUCAGUUUCUGAUAGCCACUUUUAUGCAGCUAAGACUCAUCUACAACACACACAUGGCAGAUGAGAAAUUG | 0.317 |
| UUGUUAAAAUGCUAUUUCCUUUAUUACCUUGGAAACUGACUCAGCCUCUUGUUGCUCCUAAUUAGGGUUUAAGGCUCUUGUAAGUUGCAGAUAAAAGGAUUCAUUUUAACAAUAGAAGGA | 0.451 |
| UAUUUAUAUUUAUUGACUCUUGAGUUGUUUUUGUAUAUUGGUUUUAUGAUGACGUACAAGUAGUUCUGUAUUUGAAAGUGCCUUUGCAGCUCAGAACCACAGCAACGAUCACAAAUGACU | 0.644 |
| GAUGCCAUUUAUGGACACCCCCUCUUCCCUCUCUUAGCACUGAUUUUUGAGAAAUGUGAAUUAGCUACUUGUACCCCCCGCGAGCCGGGGGUGGCGGGCGGGGACGUCUGCUCGUCAGAG | 3.59 |
| UGAUAUUUUUUGUCCUGGUCAUUUUCUUGGGCUCAUUUUAUUUGGUGAAUUUGAUCCUGGCUGUGGUGGCCAUGGCCUAUGAGGAGCAGAAUCAGGCCACCUUGGAAGAAGCAGAACAAA | 0.304 |
| GUAGAAUCUUGUUUGUAGGCUGAAUUUUAAUCUGUAUUUAUUGUCUUUUGUAUCUCAGAAAUUAGAAACUUGCUACAGACUUACCCGUAAUAUUUGUCAAGAUCAUAGCUGACUUUAAAA | 1.13 |
| GAUGUUGAGAGUUUGGACAAACUCAUGAAAACCAAAAAUAUACCUGAAGCUCACCAAGAUGCAUUUAAAACUGGUUUUGCGGAAGGUUUUCUGAAAGCUCAAGCACUCACACAAAAAACC | 0.19 |

Series 3
Target: Interferon regulatory factor 3, full length, phosphomimetic (IRF3, Homo sapiens, UniProt Q14653, residues 1-427, S386D/S396D/S398D/S402D/T404D/S405D)
UniProt Q14653, sequence (whole entry, unmodified, looked up): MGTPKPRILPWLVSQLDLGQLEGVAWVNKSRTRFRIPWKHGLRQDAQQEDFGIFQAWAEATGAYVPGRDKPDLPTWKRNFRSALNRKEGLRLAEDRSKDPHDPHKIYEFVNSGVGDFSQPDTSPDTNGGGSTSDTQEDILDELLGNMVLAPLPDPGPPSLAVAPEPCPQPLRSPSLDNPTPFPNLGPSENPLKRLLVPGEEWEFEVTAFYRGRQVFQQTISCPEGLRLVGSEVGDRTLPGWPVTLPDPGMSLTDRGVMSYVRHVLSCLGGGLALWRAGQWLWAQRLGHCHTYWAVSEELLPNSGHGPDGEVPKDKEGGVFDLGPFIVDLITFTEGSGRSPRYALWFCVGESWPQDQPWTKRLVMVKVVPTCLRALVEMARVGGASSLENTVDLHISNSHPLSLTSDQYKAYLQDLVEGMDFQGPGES
Method: protein-binding microarray
Form: double-stranded DNA, one strand shown
Sample: in vitro
Tested at: 2540 nM top
Notes: 60-bp whole probe
Together with: salmon DNA 0.4 mg/ml
Relative to: random background probes
Reading: higher = stronger binding
All sequences stand within: GCCTAGCAC … GTCTTGATTCGCTTGACGCTGCTG
| Strand | fitted relative affinity |
| --- | --- |
| TCATGTTTGTCCCTATTACTGTGCTAG | 0.659 z-score |
| GACGATTTCAGTTTCGTGACGTGCTAG | 4.13 z-score |
| TCAGTTTCTATTTTCTGACTGTGCTAG | 5.75 z-score |
| TTAGAACTGGGGACTGGATAAGTGCTA | -0.777 z-score |
| GTAAGCAAAAATGATTGGTTGTGCTAG | -0.108 z-score |
| TTAGGACTGGGGTTTCGTTTAGTGCTA | 1.07 z-score |
| GACGCTCTCAGACTGGAGACGTGCTAG | -0.196 z-score |
| TTAGATATCGGTTTTCGATTAGTGCTA | 4.06 z-score |
| TTAGAACTGGGGGATCGATTAGTGCTA | -0.191 z-score |
| GACGGTCCCCTTATCCTGACGTGCTAG | 1.39 z-score |
| TTAGGGTTCGGGTTTCGGTTAGTGCTA | 3.11 z-score |
| GACGGTATCGGTTACGGGACGTGCTAG | 3.98 z-score |
| TCATTTTTCATTATTGTACTGTGCTAG | 2.51 z-score |
| GAGGATATCAGTCTCGAGACGTGCTAG | 0.561 z-score |
| GACGATATCAGGATCGAGACGTGCTAG | 0.608 z-score |
| TCAAGTTTTCCTTCATGACTGTGCTAG | 2.48 z-score |
| AGTAATGACCTTCTCAGGAGGTGCTAG | 0.629 z-score |
| TTAGGTTTCCTTATCCTTTAGTGCTAG | 8.23 z-score |
| GACGATATCAGGTATCGAGACGTGCTA | 0.628 z-score |

Series 4
Target: CCNB1, cyclin fold, Cln2 fusion (human)
Method: yeast growth competition, sequencing
Sample: yeast
Notes: weak parent motif
Relative to: not given
Reading: higher = stronger binding
Parent: RBL1 docking peptide (human); GSAKRRLFGEDPP
| Change | normalised enrichment score |
| --- | --- |
| A3K | 0.588 |
| D11E | 1.03 |
| E10W | 0.471 |
| P12H | 0.413 |
| G9Q | 0.463 |
| G9W | 1.02 |
| P13H | 1.4 |
| L7D | -0.176 |
| G1D | 0.634 |
| G1E | 0.241 |
| S2N | 0.784 |
| G9K | 0.816 |
| G1V | 0.933 |
| S2W | -0.32 |
| K4S | 0.554 |
| S2Q | 0.521 |
| D11M | 0.435 |
| G9T | 1.4 |

For quick reference, copied from above (series 1):
| Strand | RBNS enrichment (R) |
| --- | --- |
| UUUUAGGUAUAAAUUCUUAUGCUUUAACAUUAUUUCUGGAUUGAAAAUCUUAUAAAACCCUUGAAAAUAAACAGUCUCUUUUUUACAAAGCCUGUGUUAGAGCACAGAUU | 0.352 |
| CCUUCCCACCUCAAGCGUCUGUAUAACAUUUAGACUACACAUAAAGUUUAUGUGGUACAGACAUGCCCUUGAGGUUGGUGGAAAAUAAAAAACAAGACCCUUCACACAGU | 0.266 |
| CAUAUCUUUCCAUAUAUCCUAUUAUUUCUGAAUAUAUGUCCUCAAAAUCCCCAUAAAUAUCCAUCCCUUCCUAGAUGGCAUUAACUUUCAUUUUAGAUUUUAGGUGACUC | 0.351 |
| AGGGCUCUACUUAAAGCACAUGAUGUAGAGCAACUCGCCUCUGCCCUGGGUCUGCAGAAGGCUGAGGACUUUUGGUUAAAAGCAAUCCUCAUGAAAACACCCCACCCUGC | 1.28 |
| UCUUUUCCUUCUCCAUCAUCUUAGAGCCAAGUUAUAUGUUCUUGUCUAAUCCAUGUAGCUUUUUGUUCAAUGACUUGAUCAUCUGCUUCCUUUUUGAAUUUUUAACAGAU | 0.633 |
| GCCCUCUCAUUGACAUGUACACUACUCCUCGCUGCAGGGCACUGUUCCACCUGGAUCCAGUUGCAAAGUUUGGAAAAGUUCUCUUAGUUUUACUGGAUUCUCAGGGAGCC | 0.85 |
| CUGGCUUCUGCCUCACCUGCAACAGGUCUGUCUAUACAUCUGUCUGGGUUGCUGUCAUUUCUGUUUUUCUCUUGCAGUGACAGAUCAGAUCAAGGCGGUAAAUCAAGUGG | 0.328 |
| GCAACACAGCGCAAUCUCGUCUCUACUAAAAAAAAAAAAAAAAAAAAAUUAGCUGGGCAUGAUGGCAUGCUCCUGUGGUCCCAGCUACUUGGGAGGCUGAGGCAGGAGGA | 3.86 |
| CAAGUCUGCCCUGUUUUUUUAAUUCUUUAUUCUUGUGACAGCAUUUUUGGACGUUGGAAGAGCUCAGAAGCCCAUCUUCUGCAGUUACCAAGGAAGAAAGAUCGUUCUGA | 0.514 |
